Literature values, collected from citations in different studies.
± gives the spread as reported.

C[C@]1(O)C[C@@H](c2nc(-c3ccc4ccc(-c5ccccc5)nc4c3)c3c(N)nccn32)C1
IC50 (FECH): 2200 nM

O=C(Nc1ccccc1)c1cc([N+](=O)[O-])ccc1Cl
IC50 (PPARγ; published value): 5 nM

COc1ccc(CNc2c(CO)cnc3c(C4CC4)cc(C#N)cc23)cc1Cl
IC50 (PDE3; inhibitor): > 10000 nM

CO[C@@H]1COCC[C@@H]1N[C@@H]1C[C@H]2CCC[C@@]2(C(=O)N2C[C@@H]3C[C@H]2CN3c2ncc(C(F)(F)F)cc2Cl)C1
IC50 (CCR2; 3D-QSAR training set): 314 nM

Cc1cccc(Cl)c1Nc1nc2c(Nc3ccc(C(F)(F)F)cc3)ncnc2s1
IC50 (TRPV1; calcium flux, antagonist; HEK293; with: capsaicin): 9 nM

CC(C)[C@H](N)C(=O)OCCOCn1cnc2c(=O)[nH]c(N)nc21
IC50 (PEPT1; Gly-Sar uptake): 894000 nM

CCC(=O)NS(=O)(=O)c1ccc(-c2c(-c3ccccc3)noc2C)cc1
IC50 (NR4A3 (NOR-1); inverse agonist, cellular): 25000 ± 4000 nM

CC(C)(C)c1ccc(NC(=O)c2ccc(-c3ccccn3)cc2)cc1
IC50 (TRPV1; calcium flux, antagonist; HEK293; with: capsaicin): 11 nM

O=S(=O)(c1ccccc1)N(CC(F)(F)F)c1ccc(C(O)(C(F)(F)F)C(F)(F)F)cc1
IC50 (pregnane X receptor, human; binding): 102 nM

O=c1c(O)c(-c2cc(O)c(O)c(O)c2)oc2cc(O)cc(O)c12
IC50 (PTP1B): 13000 to 20000 nM

FC(F)(F)c1ccc(Nc2ncnc3cc(-c4ncccc4C(F)(F)F)cnc23)cc1
IC50 (TRPV1; calcium flux, antagonist; HEK293; with: capsaicin): 0.63 nM

C[C@H](NC(=O)[C@H](CC(=O)NCC(C)(C)C)NC(=O)c1ccc(C(=O)NO)cc1)C(=O)NCc1ccccc1
IC50 (proteasome; chymotrypsin-like activity, inhibitor; SUP-B15r): 820 nM

CCOCC1(COCC)CCC(c2n[nH]cc2CN(C)CCNC)CC1
IC50 (CARM1 (PRMT4); enzyme activity, inhibitor): 38 nM

CN(c1cccnc1-c1ccc(C(=O)Nc2ccc(C(C)(C)C)cc2)cc1)S(C)(=O)=O
IC50 (TRPV1; calcium flux, antagonist; HEK293; with: capsaicin): 39 nM

CC[C@@H]1C(=O)N(C)c2cnc(Nc3ccc(C(=O)N[C@H]4CC[C@H](N5CCN(CC6CC6)CC5)CC4)cc3OC)nc2N1C(C)C
IC50 (human PLK1; kinase activity, inhibitor): 0.87 nM

Cc1cnc(NC(=O)c2cc(S(=O)(=O)N(C)C)ccc2N2CCCC2)s1
IC50 (oligosaccharyltransferase): ~1000 nM

C[C@@H]1O[C@@H](OC[C@H]2O[C@@H](Oc3c(-c4ccc(O)c(O)c4)oc4cc(O)cc(O)c4c3=O)[C@H](O)[C@@H](O)[C@@H]2O)[C@H](O)[C@H](O)[C@H]1O
IC50 (Zika virus NS2B-NS3 protease; enzyme activity, inhibitor; pH 7.0): 104000 ± 2900 nM

CC(C)(C)c1ccc(NC(=O)N2CCN(c3ncccc3Cl)CC2)cc1
IC50 (TRPV1; calcium flux, antagonist; HEK293; with: capsaicin): 5 nM

COC(=O)[C@@H](Cc1ccc(O)c(O)c1)OC(=O)/C=C/c1ccc(O)c(O)c1
IC50 (xanthine oxidase; inhibitor): 2310 ± 30 nM

CC(C)(C)c1ccc(/C=C/C(=O)Nc2cccc3cnccc23)cc1
IC50 (TRPV1; calcium flux, antagonist; HEK293; with: capsaicin): 5 nM

CCN(CC)CCOC(=O)c1ccc(N)cc1
IC50 (sodium channel): 60000 nM

FC(F)(F)c1ccc(Nc2nc(NCC3CC3)nc3sc(Nc4c(Cl)cccc4Cl)nc23)cc1
IC50 (TRPV1; calcium flux, antagonist; HEK293; with: capsaicin): 3 nM

CNCCCN1c2ccccc2CCc2ccccc21
IC50 (sigma-1 receptor; literature value): 2000 nM

Repeated from above:
CCOCC1(COCC)CCC(c2n[nH]cc2CN(C)CCNC)CC1
IC50 (CARM1 (PRMT4); enzyme activity, inhibitor): 38 nM

COc1ccc(CNc2c(CO)cnc3c(C4CC4)cc(C#N)cc23)cc1Cl
IC50 (PDE3; inhibitor): > 10000 nM
